Experimental data gathered from unrelated publications.
Each numbered part is a random draw from the data of one study; scales do not carry over between parts.

Study 1 — technique: RNA Bind-n-Seq; form: RNA; matrix: in vitro; tested at: 365 nM; relative to: no-protein control; reading: higher = stronger binding; measurement: RBNS enrichment (R)
Target: RNA binding protein fox-1 homolog 2, RRM domain, GST-SBP tag (RBFOX2, Homo sapiens, UniProt O43251-10, residues 100-194)
Notes: natural RNA segment, single round, ends assumed
Shared flanks, not repeated: GGGAGUUCUACAGUCCGACGAUC … UGGAAUUCUCGGGUGCCAA
UGCCCAGGGAUUGGACCUGGACCUGGCCAAGGCCUUUUGUGUGUGUCGCUGCUGCCGGGCAACGUGCAUUGCUGGGAAGCCGAAGCCGCUGGAGGAGCGGGUGGGGGGGC: 0.524
UAAAGGUCAAAAAAGCAAUCCAACCCACUGCAGAAGCUCUUUUUGAGCACUUGGUGGCAUCAGAGCAGGAGGAGCCCCAGAGCCACCUCUGGUGUCCCCCCAGGCUACCU: 0.389
UUCUUACUGUGUAAAAGAAGCUAGCUUAGUCUGUACCUAGAAUUCCUCUUGGUUAGAGGAGUGAGUUUCUUUUUUUUCCAUUAACUUGUUUCCUGAUCGAGAAACACGUG: 0.554
GGAUAGAGUGAGCCCUCUUGCGUCUUCCAGGGUAGCUCAGGUUGGCCCAGUUUGGGCCAGUCCAUUUUUGGAGGUCACUCUUUCCCCCCUCAUCCCCUCACCUCCUUCUC: 0.374
GACAAUGGGAACAUUGCUGAAGAACUGAGCAUUCUCAAAUGGAACACAGACAGUGUAGAAGAAUUCCUGAGUGAAAAGUUGGAACGCAUAUAAAUCUUGCUUAAAUUUUG: 0.526
CCUCCUGCUGCCUGCGUGGGAGAAAGUAGGGGAGGAGUCCAAACCAGGCCACCAGAGAUGGUUGAGAUAAAUGACAAAUCUGGUGGAAGUCAGACAUGGCUCUAAAGAGC: 0.483
UCACAUGAUUUCUUUUCUGGAUGGGUGCAAAGUAUCACAGGAAGUGUUUUCUCUCUGUCGCCUUGUUUUGUACCUGGGUCUCGCUUUACUAGACCGUCUCUGCACAAAAG: 0.617
UACUACCCCCAGGUUUUCAAAUGAAUUAACAGAAGCAGAGGUGUUGAGUAAAUGUAUCCAAGAGACACAUCUAGUAGGGAGUUCAGUUUUAAGAUAGUUUGGCUCCAGAG: 0.481

Study 2 — mode: inhibitor; tested at: 20 µM; measurement: inhibition
Target: Replicase polyprotein 1ab, nsp13 helicase (rep, Severe acute respiratory syndrome coronavirus 2, UniProt P0DTD1)
N[C@@H]1[C@H]2CN(c3nc4c(cc3F)c(=O)c(C(=O)O)cn4-c3ccc(F)cc3F)C[C@@H]12: 7.13%
CCOc1ccc(-c2ccc(Cn3c(CC(C)(C)C(=O)O)c(SC(C)(C)C)c4cc(OCc5ccc(C)cn5)ccc43)cc2)cn1: 2.5%
O=C(O)CSCC(=O)NC1CCSC1=O (stereo not drawn): 5.13%
COc1ccc(CCN2CCN(CCCc3ccccc3)CC2)cc1OC: 5.96%
N[C@@H](C[C@@H](F)C(=O)O)C(=O)O (racemic): 7.55%
OC(CCN1CCCCC1)(c1ccccc1)C1CCCCC1 (stereo not drawn): -1.56%
Nc1ccn(C[C@@H](CO)OCP(=O)(O)O)c(=O)n1: 6.71%
CCCN(CCc1cccs1)[C@H]1CCc2c(O)cccc2C1: 5.69%
OC(Cn1cncn1)(Cn1cncn1)c1ccc(F)cc1F: 3.55%
CC1Nc2ccc(Cl)cc2S(=O)(=O)N1 (stereo not drawn): 4.85%
CC1=CC(=O)NS(=O)(=O)O1: 6.33%
Cc1nc2ccccn2c(=O)c1CCN1CCC(C(=O)c2ccc(F)cc2)CC1: 2.1%
C=CCn1c(=O)n([C@@H]2O[C@H](CO)[C@@H](O)[C@H]2O)c2nc(N)[nH]c(=O)c21: 6.65%
O=C(NCNC(=O)NC1C(=O)NC(=O)N1CO)NC1C(=O)NC(=O)N1CO (stereo not drawn): 7.24%
Cc1nn(C)c2c1C(c1cccc(Cl)c1)=NCCN2: 4.05%
CC(O)(C(=O)Nc1ccc(S(=O)(=O)c2ccccc2)cc1)C(F)(F)F (stereo not drawn): -4.67%
C[C@H](O)[C@H](O)[C@H]1CNc2nc(N)[nH]c(=O)c2N1: 4.72%
O=C(Nc1ccccc1)N1CCN(c2nc(-c3ccccc3)ns2)CC1: 0.9%
COC(=O)CC[C@@H]1N=C(c2ccccn2)c2cc(Br)ccc2-n2c(C)cnc21: 6.31%
C#C[C@]1(OC(C)=O)CC[C@H]2[C@@H]3CCC4=CC(=O)CC[C@@H]4[C@H]3CC[C@@]21C: 2.19%
C[N+](C)(C)CC(=O)O: 7.47%
C#CCC(Cc1cnc2nc(N)nc(N)c2n1)c1ccc(C(=O)N[C@@H](CCC(=O)O)C(=O)O)cc1 (stereo partly drawn): 3.38%
C[C@]12CC[C@H]3C(=CCc4cc(O)ccc43)[C@@H]1CCC2=O: -3.03%
Cc1ccc(Cl)c(OCC(O)CNC(C)C)c1 (stereo not drawn): -2.44%
Cc1ccc(S(=O)(=O)NCl)cc1: 100%

Study 3 — technique: RNA Bind-n-Seq; form: RNA; matrix: in vitro; tested at: not given; relative to: input RNA pool; reading: higher = stronger binding; measurement: bound/input enrichment
Target: RING finger protein unkempt homolog, zinc fingers 1-6, GST-SBP tag (UNK, Homo sapiens, UniProt Q9C0B0, residues 30-357)
Notes: RNA with constant flanks, human and mouse sites, ends assumed
Shared flanks, not repeated: GGGAGUUCUACAGUCCGACGAUC … CAACAGAGGAUUGAGCAUCA
Residues (chain): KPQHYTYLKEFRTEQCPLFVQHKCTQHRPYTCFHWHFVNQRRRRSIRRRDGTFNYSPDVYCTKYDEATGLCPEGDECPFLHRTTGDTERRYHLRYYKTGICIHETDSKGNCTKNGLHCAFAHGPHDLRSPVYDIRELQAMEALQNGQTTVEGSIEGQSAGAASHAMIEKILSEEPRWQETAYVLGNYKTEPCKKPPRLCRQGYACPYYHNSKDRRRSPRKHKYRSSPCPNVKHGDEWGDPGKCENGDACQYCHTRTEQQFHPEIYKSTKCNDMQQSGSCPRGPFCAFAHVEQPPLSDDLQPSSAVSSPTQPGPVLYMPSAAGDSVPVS
AACUGGUUUGAGACUUUCAUUGUGUUCAUGAUCCUUCUCAGUAGUGGUGCAUUGGCCUUUGAAGAUAUAUACAUUGAACAGCGAAAGACUAUCAAAACCAUGCUAGAAUAUGCUGACAAA: 0.717 ratio
CACUUGAUGCCCCCAAGAAUCCUAGUAGAAUGUUUACUACCAAAUGGAAUGAUAGUGACUUUAGAAUGCCUCCGUGAGGCUACAUUAAUAACCAUAAAGCAUGAACUAUUUAAAGAAGCA: 0.953 ratio
ACUGUGCUUCAAGCGGUGUCUGCUUUUGGGGCAGAGUUUUCAUCGGAGGCAUGCAGAGAGUUAGGCUUUUCUAGCAACUUGCUUUGCAGCUCUUGUGAUCUUCUCGGACAGUUCAACCUG: 0.0834 ratio
CAUUUUAUUCCAAGAUGUUUUAUCUUUUAUGUUAAGAGAUCAAAGCUUAUAAUUUUCUUUUUUAAUUUUUGAAGGAGGGAUCAACUCCAGUUUCCAAUGUCUAUGUGUCUAUGUGUGUAU: 2.54 ratio
AUCCUUCAGUGUUUUUUGUCCAUUAUCUGGGUCUUUUGGGCUUUAUCUAUUUUGGCUUCGAUUAGGAAACCCACGAAUCAGGUAGAAACCCCCGGAUGGCUGCCAUAGUUCCAGUUUUAA: 0.592 ratio
UAAAAGCGAUGCCCAUAUAAGUCAAGGAAAUGAGCCCAGGCCUCGCUGUGAAGCAGUGUGUGAAUGGACAGUGUUGAAUGGGUGUCUGGCUCCGUGCUAGAGAGCCAGGUUCAUCUUUCA: 0.171 ratio
AACACAUGGCAGUUCAACUUCAAGUUCAACCUGACAGAGGAUAUGUACUCCCAGGAUUCCAUAGAUCUGCUUGCAAACUCAGGGCUGCAGUUCCAGAAACACGAGGAGGAAGGGAUCGAU: 0.11 ratio
GCUGAAGAGAGGAGGAUGAUCUAGGACGCUGUCCGGGUGGACGGCCACGCCGCAAGACGCGGCCCUGCAGGAGUGACUAGCACGGUCAGGGCGGGAGCCACGAGCGCCUCUGGGAACCUC: 0.1 ratio

Study 4 — technique: protein-binding microarray; form: double-stranded DNA, one strand shown; matrix: in vitro; tested at: not given; reading: higher = stronger binding; measurement: E-score
Target: Max-binding protein MNT, bHLH-zipper, MAX partner unstated (MNT, Homo sapiens, UniProt Q99583, residues 220-300)
Notes: k-mer, scored over probes, only values ≥0.25
Target sequence (chain): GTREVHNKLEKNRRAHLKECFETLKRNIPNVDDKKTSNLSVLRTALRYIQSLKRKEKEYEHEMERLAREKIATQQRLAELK
ACATGTGC: 0.482
ATGCGTTG: 0.259
ATGTGGCG: 0.321
GCCCCAAC: 0.314
ATAGCATG: 0.337
CGTGTACC: 0.385

Study 5 — effect on: enzyme activity; mode: inhibitor; tested at: 20 µM; notes: hit confirmation, with DTT; measurement: inhibition
Target: Replicase polyprotein 1ab, main protease (rep, Severe acute respiratory syndrome coronavirus 2, UniProt P0DTD1)
N[C@@H](Cc1ccc(O)c(O)c1)C(=O)O: -24.8%
COc1cccc(C(=O)CCN[C@@H](C)[C@H](O)c2ccccc2)c1: -7.3%
Oc1cc2c(cc1O)CN(C(=S)NCCc1ccc(Cl)cc1)CCC2: -8.7%
CN1C(=O)C(N2CCCCC2)S/C1=C\C(=O)O (stereo not drawn): 3.5%

Study 6 — cell line: HEK-293T/ACE2; tested at: 10 µM; time: 16 h; relative to: vehicle; measurement: viability
O=c1[nH]c(=O)n([C@H]2C[C@H](O)[C@@H](CO)O2)cc1I: 96.5%
Cc1c(OCC(F)(F)F)ccnc1C[S+]([O-])c1nc2ccccc2[nH]1 (stereo not drawn): 98.7%
C[N+](C)(C)CCCCCCCCCC[N+](C)(C)C: 100%

A few entries again (study 5):
N[C@@H](Cc1ccc(O)c(O)c1)C(=O)O: -24.8%
CN1C(=O)C(N2CCCCC2)S/C1=C\C(=O)O (stereo not drawn): 3.5%
Oc1cc2c(cc1O)CN(C(=S)NCCc1ccc(Cl)cc1)CCC2: -8.7%
COc1cccc(C(=O)CCN[C@@H](C)[C@H](O)c2ccccc2)c1: -7.3%
